Results of several laboratories.
Compare with care: the assays were run in different laboratories. ± gives the spread as reported.
B1: IGSF10 1941-2229 (Homo sapiens, UniProt Q6WRI0); sequence looked up; chain PRIEAASQKRTEVNFGDKLLLNCSATGEPKPQIMWRLPSKAVVDQQHRVGSWIHVYPNGSLFIGSVTEKDSGVYLCVARNKMGDDLILMHVSLRLKPAKIDHKQYFRKQVLHGKDFQVDCKASGSPVPEISWSLPDGTMINNAMQADDSGHRTRRYTLFNNGTLYFNKVGVAEEGDYTCYAQNTLGKDEMKVHLTVITAAPRIRQSNKTNKRIKAGDTAVLDCEVTGDPKPKIFWLLPSNDMISFSIDRYTFHANGSLTINKVKLLDSGEYVCVARNPSGDDTKMYKLD
B2: Lep (Mus musculus, UniProt P41160); sequence looked up; chain VPIQKVQDDTKTLIKTIVTRINDISHTQSVSAKQRVTGLDFIPGLHPILSLSKMDQTLAVYQQVLTSLPSQNVLQIANDLENLRDLLHLLAFSKSCSLPQTSGLQKPESLDGVLEASLYSTEVVALSRLQGSLQDILQQLDVSPEC
B3: C1S 438-688 S632A (Homo sapiens, UniProt P09871); chain IIGGSDADIKNFPWQVFFDNPWAGGALINEYWVLTAAHVVEGNREPTMYVGSTSVQTSRLAKSKMLTPEHVFIHPGWKLLEVPEGRTNFDNDIALVRLKDPVKMGPTVSPICLPGTSSDYNLMDGDLGLISGWGRTEKRDRAVRLKAARLPVAPLRKCKEVKVEKPTADAEAYVFTPNMICAGGEKGMDSCKGDAGGAFAVQDPNDKTKFYAAGLVSWGPQCGTYGLYTRVKNYVDWIMKTMQENSTPRED
B4: BRAF kinase 448-723 K723G/P722S/S720E/L716E/S713E/Q709R/L706S/A688R/Y673S/R671A/K630S/V600E/L588N/Q562R (Homo sapiens, UniProt P15056); sequence looked up; chain DDWEIPDGQITVGQRIGSGSFGTVYKGKWHGDVAVKMLNVTAPTPQQLQAFKNEVGVLRKTRHVNILLFMGYSTKPQLAIVTQWCEGSSLYHHLHASETKFEMKKLIDIARQTARGMDYLHAKSIIHRDLKSNNIFLHEDNTVKIGDFGLATEKSRWSGSHQFEQLSGSILWMAPEVIRMQDSNPYSFQSDVYAFGIVLYELMTGQLPYSNINNRDQIIFMVGAGSLSPDLSKVRSNCPKRMKRLMAECLKKKRDERPSFPRILAEIEELARELSG
Sequence of UniProt Q86YC2 (whole entry, looked up): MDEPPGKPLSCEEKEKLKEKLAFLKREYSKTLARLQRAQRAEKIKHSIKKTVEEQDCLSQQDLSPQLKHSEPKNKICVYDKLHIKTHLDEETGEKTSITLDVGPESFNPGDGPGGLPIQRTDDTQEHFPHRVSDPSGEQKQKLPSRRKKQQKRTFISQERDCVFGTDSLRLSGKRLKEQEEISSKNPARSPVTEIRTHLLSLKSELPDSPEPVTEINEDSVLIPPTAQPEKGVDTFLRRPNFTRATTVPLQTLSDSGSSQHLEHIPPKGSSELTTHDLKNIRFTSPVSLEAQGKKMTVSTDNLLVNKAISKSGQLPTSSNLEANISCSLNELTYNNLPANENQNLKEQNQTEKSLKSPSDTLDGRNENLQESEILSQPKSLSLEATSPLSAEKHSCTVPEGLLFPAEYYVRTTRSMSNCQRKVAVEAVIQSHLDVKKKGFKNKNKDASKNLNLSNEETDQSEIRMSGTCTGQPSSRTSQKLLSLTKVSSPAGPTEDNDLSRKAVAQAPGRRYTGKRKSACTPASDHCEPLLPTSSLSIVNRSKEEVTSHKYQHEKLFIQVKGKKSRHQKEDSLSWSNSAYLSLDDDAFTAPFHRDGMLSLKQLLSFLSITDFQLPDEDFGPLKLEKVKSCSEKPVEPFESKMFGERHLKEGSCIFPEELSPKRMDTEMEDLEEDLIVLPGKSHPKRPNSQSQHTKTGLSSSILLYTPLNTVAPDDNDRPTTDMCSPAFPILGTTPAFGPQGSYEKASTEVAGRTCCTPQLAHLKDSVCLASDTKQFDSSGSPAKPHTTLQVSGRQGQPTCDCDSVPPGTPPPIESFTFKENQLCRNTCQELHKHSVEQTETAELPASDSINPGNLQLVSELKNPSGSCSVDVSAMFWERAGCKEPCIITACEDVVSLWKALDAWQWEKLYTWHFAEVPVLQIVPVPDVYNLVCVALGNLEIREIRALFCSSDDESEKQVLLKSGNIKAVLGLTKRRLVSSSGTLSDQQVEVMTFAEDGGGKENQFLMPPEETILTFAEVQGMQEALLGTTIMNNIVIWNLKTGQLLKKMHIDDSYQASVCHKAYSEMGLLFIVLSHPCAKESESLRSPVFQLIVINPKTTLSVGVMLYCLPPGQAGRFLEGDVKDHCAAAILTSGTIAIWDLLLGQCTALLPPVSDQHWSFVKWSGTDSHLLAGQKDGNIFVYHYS
Sequence of UniProt P20827 (whole entry, looked up): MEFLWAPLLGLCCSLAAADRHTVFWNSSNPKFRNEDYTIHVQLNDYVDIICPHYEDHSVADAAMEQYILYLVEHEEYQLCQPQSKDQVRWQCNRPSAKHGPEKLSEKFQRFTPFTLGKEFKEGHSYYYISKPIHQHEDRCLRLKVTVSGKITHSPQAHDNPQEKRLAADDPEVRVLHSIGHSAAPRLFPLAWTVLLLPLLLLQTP
Sequence of UniProt P26039 (whole entry, looked up): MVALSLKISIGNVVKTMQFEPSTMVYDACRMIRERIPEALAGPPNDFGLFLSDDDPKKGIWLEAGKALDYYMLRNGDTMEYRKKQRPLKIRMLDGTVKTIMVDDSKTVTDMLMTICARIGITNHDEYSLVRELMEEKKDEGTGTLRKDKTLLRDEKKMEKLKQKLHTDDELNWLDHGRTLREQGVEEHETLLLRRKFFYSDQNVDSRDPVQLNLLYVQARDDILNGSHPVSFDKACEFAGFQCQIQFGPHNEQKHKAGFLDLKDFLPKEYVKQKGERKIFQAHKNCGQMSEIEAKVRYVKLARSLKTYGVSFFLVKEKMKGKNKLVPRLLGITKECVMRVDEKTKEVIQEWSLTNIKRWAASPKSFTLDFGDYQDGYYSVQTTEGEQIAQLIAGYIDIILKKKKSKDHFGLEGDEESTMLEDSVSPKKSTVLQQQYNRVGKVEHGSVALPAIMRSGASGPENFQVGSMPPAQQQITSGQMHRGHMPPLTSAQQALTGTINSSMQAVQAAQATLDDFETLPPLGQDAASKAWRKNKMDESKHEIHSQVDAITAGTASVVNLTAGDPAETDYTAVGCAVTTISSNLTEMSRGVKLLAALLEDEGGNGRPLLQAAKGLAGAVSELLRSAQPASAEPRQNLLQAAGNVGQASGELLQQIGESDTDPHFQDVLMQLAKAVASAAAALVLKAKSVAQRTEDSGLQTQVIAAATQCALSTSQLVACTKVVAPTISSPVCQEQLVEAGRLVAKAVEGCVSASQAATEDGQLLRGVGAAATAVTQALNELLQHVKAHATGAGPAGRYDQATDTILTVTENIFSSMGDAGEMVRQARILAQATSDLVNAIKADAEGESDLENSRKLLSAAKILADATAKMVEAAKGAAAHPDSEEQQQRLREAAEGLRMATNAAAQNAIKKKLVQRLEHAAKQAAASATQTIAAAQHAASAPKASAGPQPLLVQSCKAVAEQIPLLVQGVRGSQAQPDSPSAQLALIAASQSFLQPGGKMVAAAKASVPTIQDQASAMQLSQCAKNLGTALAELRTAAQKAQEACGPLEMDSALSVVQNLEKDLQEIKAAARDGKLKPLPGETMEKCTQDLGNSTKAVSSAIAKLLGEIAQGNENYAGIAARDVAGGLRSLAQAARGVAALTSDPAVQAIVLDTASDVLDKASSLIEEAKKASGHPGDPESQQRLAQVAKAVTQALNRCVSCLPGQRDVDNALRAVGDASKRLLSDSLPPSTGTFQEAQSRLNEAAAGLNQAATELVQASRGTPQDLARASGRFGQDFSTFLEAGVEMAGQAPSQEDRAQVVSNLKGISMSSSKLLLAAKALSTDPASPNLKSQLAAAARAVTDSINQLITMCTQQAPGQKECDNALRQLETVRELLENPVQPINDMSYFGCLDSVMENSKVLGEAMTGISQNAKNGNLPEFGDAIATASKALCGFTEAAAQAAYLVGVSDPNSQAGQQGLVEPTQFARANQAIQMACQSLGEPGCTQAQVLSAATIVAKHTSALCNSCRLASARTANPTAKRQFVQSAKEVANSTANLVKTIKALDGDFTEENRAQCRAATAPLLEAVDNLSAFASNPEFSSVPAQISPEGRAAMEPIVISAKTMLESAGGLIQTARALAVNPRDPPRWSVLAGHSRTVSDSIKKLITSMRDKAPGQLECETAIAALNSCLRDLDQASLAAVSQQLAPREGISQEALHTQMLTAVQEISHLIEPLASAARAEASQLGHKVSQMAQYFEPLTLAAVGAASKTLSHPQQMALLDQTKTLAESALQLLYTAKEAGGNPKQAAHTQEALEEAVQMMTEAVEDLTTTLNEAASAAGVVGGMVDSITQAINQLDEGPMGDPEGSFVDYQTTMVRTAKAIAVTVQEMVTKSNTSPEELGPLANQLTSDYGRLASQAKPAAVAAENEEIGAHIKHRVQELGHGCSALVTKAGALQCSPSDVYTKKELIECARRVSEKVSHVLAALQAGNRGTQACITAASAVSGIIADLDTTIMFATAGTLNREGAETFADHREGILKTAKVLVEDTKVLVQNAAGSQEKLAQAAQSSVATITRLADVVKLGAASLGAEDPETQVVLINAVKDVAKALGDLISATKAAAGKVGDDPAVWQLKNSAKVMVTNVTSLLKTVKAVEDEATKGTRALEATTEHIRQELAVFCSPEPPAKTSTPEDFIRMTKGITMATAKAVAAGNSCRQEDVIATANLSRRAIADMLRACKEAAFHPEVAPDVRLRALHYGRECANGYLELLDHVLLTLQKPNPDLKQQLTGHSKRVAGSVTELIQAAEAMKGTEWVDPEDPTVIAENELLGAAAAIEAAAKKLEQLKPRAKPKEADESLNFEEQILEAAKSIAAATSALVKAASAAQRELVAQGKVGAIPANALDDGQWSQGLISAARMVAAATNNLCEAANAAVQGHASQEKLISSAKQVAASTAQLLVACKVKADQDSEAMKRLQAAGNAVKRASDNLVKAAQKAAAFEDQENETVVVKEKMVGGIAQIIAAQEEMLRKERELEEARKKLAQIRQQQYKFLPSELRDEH
Sequence of UniProt Q9NZQ7 (whole entry, looked up): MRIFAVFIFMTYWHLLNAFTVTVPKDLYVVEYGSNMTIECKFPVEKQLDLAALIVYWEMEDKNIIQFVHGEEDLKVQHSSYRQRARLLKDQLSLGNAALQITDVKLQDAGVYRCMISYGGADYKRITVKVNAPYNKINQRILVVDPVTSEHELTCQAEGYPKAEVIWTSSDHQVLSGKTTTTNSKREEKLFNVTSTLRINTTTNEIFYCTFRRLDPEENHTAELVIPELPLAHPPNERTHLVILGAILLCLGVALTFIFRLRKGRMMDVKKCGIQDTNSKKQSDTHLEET
Sequence of UniProt P05155 (whole entry, unmodified, looked up): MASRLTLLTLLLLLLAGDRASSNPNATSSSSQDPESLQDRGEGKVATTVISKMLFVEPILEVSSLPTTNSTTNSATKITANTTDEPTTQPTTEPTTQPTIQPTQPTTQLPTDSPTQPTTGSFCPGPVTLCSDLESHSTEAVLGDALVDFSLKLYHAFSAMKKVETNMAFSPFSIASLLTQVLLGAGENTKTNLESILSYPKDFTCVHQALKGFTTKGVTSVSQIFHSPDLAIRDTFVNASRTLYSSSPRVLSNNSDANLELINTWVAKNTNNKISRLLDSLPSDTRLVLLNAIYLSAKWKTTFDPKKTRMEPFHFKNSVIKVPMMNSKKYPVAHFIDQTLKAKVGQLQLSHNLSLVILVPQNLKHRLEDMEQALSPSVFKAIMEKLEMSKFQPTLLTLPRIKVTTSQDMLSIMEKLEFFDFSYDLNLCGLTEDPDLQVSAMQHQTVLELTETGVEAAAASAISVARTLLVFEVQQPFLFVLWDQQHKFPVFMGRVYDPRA

Substance	tested on	assay	test system	setting	scale	quantity	value
B1 (IGSF10 1941-2229)	RET 29-635 (Homo sapiens, UniProt P07949)	ITC	–	–	–	Kd	0.128 µM
CDH2 EC3 (Homo sapiens)	FGB residues 15-66, dimer (Homo sapiens)	ELISA	–	–	–	Kd	0.0713 µM
colistin	Enterobacter cloacae	broth microdilution	clinical isolate RKI-No_210/15	–	–	MIC	1 µg/mL
QSARYRDTEL	human MAGI1-2/6 PDZ construct (MBP fusion)	surface plasmon resonance	peptide	concentration not given	higher = stronger binding	normalised SPR binding response	0 normalised RU
B2 (Lep)	Lepr 22-839 (Mus musculus, UniProt P48356)	SPR	–	–	–	Kd	4000 µM
KLLMIIHDRREFAKFEKEKMNAKWDTQENPIYKSPINNFKNPNYGRKAGL (ITGB1 752-801 (Homo sapiens, UniProt P05556-5); sequence looked up)	Tln1 309-405 (Mus musculus, UniProt P26039)	NMR titration	–	–	–	Kd	95 µM
EPHA2 fragment, auto-phosphorylated (Homo sapiens)	EFNA1 (Homo sapiens, UniProt P20827)	BLI	–	apparent	–	Kd	0.34 µM
Unc5D fragment (Rattus norvegicus) (sequence not shown)	Flrt2 ectodomain (Mus musculus)	SPR	–	–	–	Kd	0.31 µM
LVGWHRSYYTWN (LVG-TR3 peptide)	CD274 19-238 (Homo sapiens, UniProt Q9NZQ7)	SPR	peptide	–	–	Kd	1.98 µM
BRCA1 coiled-coil domain (Homo sapiens)	PALB2 1-56 (Homo sapiens, UniProt Q86YC2)	ITC	–	–	–	Kd	1.4 µM
ACRGDGWCG (cyclic RGD peptide; disulfide-cyclized, aminocaproic acid, FITC)	ITGAV/ITGB5 ectodomain, soluble, clasped	fluorescence polarisation	peptide	–	–	Kd	0.0052 µM
B3 (C1S 438-688 S632A)	SERPING1 111-500 Q361A/N362A (Homo sapiens, UniProt P05155)	SPR	–	added: Ca2+	–	Kd	21.6 µM
GSGAGSETKM	human MAGI1-3/6 PDZ construct (MBP fusion)	automated holdup	peptide, crude extract	concentration not given, corrected by standard peak, unit not given	relative to: biotin control resin, higher = stronger binding	binding intensity	-0.0382
B4	MAP2K1 (Homo sapiens, UniProt Q02750)	BLI	–	–	–	Kd	0.0299 ± 0.00285 µM

Some of these lines once more:
Substance	tested on	assay	test system	setting	scale	quantity	value
B1 (IGSF10 1941-2229)	RET 29-635 (Homo sapiens, UniProt P07949)	ITC	–	–	–	Kd	0.128 µM
